Measurements from different studies.
Every numbered part comes from another study and shows a few of its results, in no order. “And” joins repeats or separate records; there may be more than shown.
UniProt P52564, sequence (whole entry, looked up): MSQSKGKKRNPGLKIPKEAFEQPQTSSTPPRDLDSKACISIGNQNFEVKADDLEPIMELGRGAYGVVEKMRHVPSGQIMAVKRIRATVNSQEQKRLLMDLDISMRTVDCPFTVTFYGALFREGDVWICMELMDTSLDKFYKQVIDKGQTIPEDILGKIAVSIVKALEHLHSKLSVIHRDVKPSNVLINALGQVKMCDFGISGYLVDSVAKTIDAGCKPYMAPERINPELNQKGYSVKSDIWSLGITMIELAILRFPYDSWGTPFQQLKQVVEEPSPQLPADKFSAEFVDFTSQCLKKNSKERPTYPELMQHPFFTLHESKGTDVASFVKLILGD
UniProt P57059, sequence (whole entry, looked up): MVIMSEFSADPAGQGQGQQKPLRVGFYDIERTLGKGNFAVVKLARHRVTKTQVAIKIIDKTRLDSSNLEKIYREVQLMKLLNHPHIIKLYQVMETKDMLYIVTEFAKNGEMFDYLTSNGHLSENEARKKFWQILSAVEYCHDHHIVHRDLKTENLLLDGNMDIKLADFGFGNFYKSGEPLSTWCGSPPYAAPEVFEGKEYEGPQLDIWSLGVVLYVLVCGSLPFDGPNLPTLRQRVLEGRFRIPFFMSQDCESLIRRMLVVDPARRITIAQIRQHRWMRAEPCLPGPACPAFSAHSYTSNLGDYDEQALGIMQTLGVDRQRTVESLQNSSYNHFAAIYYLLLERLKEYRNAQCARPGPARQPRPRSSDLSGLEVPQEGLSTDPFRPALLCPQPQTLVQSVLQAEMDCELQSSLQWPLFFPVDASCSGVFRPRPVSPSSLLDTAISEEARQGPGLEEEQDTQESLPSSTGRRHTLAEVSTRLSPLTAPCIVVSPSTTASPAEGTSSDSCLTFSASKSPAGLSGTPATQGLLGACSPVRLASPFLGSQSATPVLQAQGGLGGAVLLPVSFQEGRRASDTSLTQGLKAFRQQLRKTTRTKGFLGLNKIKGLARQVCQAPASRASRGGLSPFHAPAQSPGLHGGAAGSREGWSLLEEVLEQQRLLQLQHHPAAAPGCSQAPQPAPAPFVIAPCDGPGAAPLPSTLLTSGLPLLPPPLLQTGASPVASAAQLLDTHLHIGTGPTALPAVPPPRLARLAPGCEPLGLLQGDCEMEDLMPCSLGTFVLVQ
UniProt Q02779, sequence (whole entry, looked up): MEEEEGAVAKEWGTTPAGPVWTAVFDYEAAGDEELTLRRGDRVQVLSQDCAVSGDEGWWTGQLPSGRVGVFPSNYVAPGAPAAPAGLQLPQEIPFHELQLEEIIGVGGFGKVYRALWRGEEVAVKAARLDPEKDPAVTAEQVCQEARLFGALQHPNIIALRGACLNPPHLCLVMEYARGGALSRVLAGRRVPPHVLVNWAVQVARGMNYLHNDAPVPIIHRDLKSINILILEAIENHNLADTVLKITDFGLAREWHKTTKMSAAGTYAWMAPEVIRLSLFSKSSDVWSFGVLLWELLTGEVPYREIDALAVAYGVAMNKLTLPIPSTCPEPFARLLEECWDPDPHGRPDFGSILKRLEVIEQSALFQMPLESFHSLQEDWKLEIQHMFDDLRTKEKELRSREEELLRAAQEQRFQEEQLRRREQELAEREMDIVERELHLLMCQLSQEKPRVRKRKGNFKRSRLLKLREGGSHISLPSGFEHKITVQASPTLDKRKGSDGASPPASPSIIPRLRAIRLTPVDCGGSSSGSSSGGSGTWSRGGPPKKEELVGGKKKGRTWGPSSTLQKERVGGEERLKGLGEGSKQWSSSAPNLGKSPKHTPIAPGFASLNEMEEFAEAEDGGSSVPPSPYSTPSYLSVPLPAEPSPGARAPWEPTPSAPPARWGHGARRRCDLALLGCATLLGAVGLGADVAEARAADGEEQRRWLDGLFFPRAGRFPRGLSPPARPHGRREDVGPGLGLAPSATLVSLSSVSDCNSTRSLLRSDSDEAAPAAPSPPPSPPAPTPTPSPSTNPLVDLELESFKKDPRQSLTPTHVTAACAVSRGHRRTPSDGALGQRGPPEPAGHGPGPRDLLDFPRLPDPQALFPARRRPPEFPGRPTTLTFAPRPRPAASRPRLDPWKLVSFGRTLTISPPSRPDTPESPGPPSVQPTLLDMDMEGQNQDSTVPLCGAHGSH
UniProt O15264, sequence (whole entry, looked up): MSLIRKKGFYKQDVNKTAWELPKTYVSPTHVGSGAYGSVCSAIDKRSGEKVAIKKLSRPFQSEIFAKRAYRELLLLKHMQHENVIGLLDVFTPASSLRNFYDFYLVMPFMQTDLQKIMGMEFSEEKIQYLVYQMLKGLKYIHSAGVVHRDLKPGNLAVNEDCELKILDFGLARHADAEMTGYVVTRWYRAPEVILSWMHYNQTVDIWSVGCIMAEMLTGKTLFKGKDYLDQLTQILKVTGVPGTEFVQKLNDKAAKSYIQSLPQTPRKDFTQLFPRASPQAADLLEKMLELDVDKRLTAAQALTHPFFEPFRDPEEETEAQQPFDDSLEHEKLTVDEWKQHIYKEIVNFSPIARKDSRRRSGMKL

Series 1
Target: DNA polymerase theta, ATPase domain (POLQ, Homo sapiens, UniProt O75417)
UniProt O75417, sequence (whole entry, unmodified, looked up): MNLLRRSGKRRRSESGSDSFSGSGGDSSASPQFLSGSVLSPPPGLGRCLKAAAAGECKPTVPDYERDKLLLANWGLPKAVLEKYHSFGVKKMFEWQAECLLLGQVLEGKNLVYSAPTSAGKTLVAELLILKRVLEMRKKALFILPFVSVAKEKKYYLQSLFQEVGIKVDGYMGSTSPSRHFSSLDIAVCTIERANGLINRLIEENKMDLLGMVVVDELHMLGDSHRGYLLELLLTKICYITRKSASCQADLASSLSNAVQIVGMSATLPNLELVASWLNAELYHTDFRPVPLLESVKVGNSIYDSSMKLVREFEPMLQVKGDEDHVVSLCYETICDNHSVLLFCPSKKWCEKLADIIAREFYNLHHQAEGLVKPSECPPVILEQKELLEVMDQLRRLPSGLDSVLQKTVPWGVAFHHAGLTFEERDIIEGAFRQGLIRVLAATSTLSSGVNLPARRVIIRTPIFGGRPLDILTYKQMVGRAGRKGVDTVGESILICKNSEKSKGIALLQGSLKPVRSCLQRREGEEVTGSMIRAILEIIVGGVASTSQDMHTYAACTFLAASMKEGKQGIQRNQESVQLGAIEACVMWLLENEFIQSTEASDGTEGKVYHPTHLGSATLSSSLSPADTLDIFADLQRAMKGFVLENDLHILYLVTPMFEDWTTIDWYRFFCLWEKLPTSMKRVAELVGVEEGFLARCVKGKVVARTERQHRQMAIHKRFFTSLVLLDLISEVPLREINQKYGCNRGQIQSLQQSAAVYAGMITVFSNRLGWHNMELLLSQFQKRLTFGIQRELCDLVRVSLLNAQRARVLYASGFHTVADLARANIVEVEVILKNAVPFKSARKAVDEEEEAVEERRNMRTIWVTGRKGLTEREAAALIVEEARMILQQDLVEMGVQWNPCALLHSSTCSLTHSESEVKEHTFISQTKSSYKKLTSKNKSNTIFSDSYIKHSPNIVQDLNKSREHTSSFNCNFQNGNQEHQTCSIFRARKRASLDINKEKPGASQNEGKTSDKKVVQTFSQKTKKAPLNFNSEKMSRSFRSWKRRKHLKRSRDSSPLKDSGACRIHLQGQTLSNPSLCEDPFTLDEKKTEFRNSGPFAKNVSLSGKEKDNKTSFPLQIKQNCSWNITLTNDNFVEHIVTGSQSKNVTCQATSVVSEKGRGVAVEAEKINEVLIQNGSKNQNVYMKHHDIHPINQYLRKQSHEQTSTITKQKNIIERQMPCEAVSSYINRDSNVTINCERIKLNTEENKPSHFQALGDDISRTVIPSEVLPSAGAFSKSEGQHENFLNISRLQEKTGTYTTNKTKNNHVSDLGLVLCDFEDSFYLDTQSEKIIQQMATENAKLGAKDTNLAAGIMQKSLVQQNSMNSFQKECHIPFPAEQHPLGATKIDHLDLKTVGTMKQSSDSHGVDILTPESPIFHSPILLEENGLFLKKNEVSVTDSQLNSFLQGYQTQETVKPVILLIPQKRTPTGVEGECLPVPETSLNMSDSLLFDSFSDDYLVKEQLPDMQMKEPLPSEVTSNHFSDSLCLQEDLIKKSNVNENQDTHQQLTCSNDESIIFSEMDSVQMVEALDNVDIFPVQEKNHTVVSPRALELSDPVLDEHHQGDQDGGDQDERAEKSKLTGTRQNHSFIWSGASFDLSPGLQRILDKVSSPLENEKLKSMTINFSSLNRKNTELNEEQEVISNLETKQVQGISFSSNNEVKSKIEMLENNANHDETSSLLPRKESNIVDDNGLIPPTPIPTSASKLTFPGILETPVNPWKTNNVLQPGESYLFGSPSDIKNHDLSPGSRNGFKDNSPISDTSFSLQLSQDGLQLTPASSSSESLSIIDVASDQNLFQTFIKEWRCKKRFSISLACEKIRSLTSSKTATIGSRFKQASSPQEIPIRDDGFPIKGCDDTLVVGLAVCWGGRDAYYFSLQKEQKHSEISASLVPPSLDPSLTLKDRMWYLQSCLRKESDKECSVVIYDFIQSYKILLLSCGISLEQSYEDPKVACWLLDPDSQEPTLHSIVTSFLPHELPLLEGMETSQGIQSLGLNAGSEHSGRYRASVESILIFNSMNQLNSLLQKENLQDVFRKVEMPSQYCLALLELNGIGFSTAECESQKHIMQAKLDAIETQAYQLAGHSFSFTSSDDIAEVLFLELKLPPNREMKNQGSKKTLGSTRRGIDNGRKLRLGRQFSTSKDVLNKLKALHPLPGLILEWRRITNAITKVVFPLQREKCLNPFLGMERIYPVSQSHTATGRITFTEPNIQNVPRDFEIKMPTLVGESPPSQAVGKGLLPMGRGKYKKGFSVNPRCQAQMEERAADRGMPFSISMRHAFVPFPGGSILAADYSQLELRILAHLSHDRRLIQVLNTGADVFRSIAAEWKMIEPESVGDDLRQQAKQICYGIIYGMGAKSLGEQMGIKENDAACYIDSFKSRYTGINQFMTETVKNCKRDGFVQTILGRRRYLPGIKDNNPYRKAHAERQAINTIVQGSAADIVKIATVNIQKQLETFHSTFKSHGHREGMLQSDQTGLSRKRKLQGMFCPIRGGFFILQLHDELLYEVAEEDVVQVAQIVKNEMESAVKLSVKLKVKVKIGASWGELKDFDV
Observed: enzyme activity
Mode: inhibitor
Tested at: 77 µM
Relative to: untreated
Structure (SMILES) | remaining activity
COc1ccc2cc(CCC(C)=O)ccc2c1 | 92.2% and 102%
O=C(O)COC(=O)Cc1ccccc1Nc1c(Cl)cccc1Cl | 106%
CC(=O)c1cc([N+](=O)[O-])c(Sc2ccc(F)cc2F)s1 | 105%
OC(CCN1CCCC1)(c1ccccc1)C1CCCCC1 (stereo not drawn) | 104%
Nc1[nH]cnc2ncnc1-2 | 93%
Cc1cc(Nc2ncnc3ccc(-c4ccc(CNCCS(C)(=O)=O)o4)cc23)ccc1Oc1ccn2ncnc2c1 | 97.7%
CC#C[C@]1(O)CC[C@H]2[C@@H]3CCC4=CC(=O)CCC4=C3[C@@H](c3ccc(N(C)C)cc3)C[C@@]21C | 102% and 95.3% and 92.2%
O=C(/C=C/c1ccc(O)c(O)c1)OCCc1ccccc1 | 97.6% and 100%
O=C(CCSCc1ccco1)NNC(=O)N1Cc2ccccc2Oc2ccc(Cl)cc21 | 98.7%
COc1ccc(-c2ccc(=N)n(CCCC(=O)O)n2)cc1 | 101%
CCCCCCOC(=O)NC(=N)c1ccc(NCc2nc3cc(C(=O)N(CCC(=O)OCC)c4ccccn4)ccc3n2C)cc1 | 97.1%
Clc1ccc(Nc2nnc(Cc3ccncc3)c3ccccc23)cc1 | 101%
CCN(CC)CCNc1ccc(CO)c2sc3ccccc3c(=O)c12 | 94%
CN(C)c1cc(NC(=O)CNC(C)(C)C)c(O)c2c1C[C@H]1C[C@H]3[C@H](N(C)C)C(O)=C(C(N)=O)C(=O)[C@@]3(O)C(O)=C1C2=O | 96.6%

Series 2
Structure (SMILES): Cc1c(NC(=O)c2cc(C(N)=O)nc3cc(F)ccc23)c(C(F)(F)F)nn1Cc1ccc(C(C)(C)C)cc1
Tested at: 1 µM
target | observed | technique | remaining binding [%]
HIPK3 (Homo sapiens, UniProt Q9H422) | cell-free assay | competition with immobilised ligand | 100
WEE2 (Homo sapiens, UniProt P0C1S8) | cell-free assay | competition with immobilised ligand | 96
NEK7 (Homo sapiens, UniProt Q8TDX7) | cell-free assay | competition with immobilised ligand | 100
MAP2K6 (Homo sapiens, UniProt P52564) | cell-free assay | competition with immobilised ligand | 92
GAK (Homo sapiens, UniProt O14976) | cell-free assay | competition with immobilised ligand | 98
ALK (Homo sapiens, UniProt Q9UM73, C1156Y) | cell-free assay | competition with immobilised ligand | 100
ACVR2A (Homo sapiens, UniProt P27037) | cell-free assay | competition with immobilised ligand | 100
LTK (Homo sapiens, UniProt P29376) | cell-free assay | competition with immobilised ligand | 83
Tyrosine-protein kinase ABL1, phosphorylated (ABL1, Homo sapiens, UniProt P00519) | cell-free assay | competition with immobilised ligand | 100
CLK2 (Homo sapiens, UniProt P49760) | cell-free assay | competition with immobilised ligand | 76
SIK1 (Homo sapiens, UniProt P57059) |  | competition binding | 87
TEC (Homo sapiens, UniProt P42680) | cell-free assay | competition with immobilised ligand | 94
DDR2 (Homo sapiens, UniProt Q16832) | cell-free assay | competition with immobilised ligand | 93
RET (Homo sapiens, UniProt P07949, M918T) | cell-free assay | competition with immobilised ligand | 96
CAMK2B (Homo sapiens, UniProt Q13554) | cell-free assay | competition with immobilised ligand | 98
BLK (Homo sapiens, UniProt P51451) | cell-free assay | competition with immobilised ligand | 72
BMPR1A (Homo sapiens, UniProt P36894) | cell-free assay | competition with immobilised ligand | 100
CDK14 (Homo sapiens, UniProt O94921) | cell-free assay | competition with immobilised ligand | 94
EPHB2 (Homo sapiens, UniProt P29323) | cell-free assay | competition with immobilised ligand | 83
Cyclin-dependent kinase 4, with cyclin D3 (CDK4, Homo sapiens, UniProt P11802) | cell-free assay | competition with immobilised ligand | 100
MKNK1 (Homo sapiens, UniProt Q9BUB5) | cell-free assay | competition with immobilised ligand | 100
EGFR (Homo sapiens, UniProt P00533, L858R/T790M) | cell-free assay | competition with immobilised ligand | 100
EIF2AK2 (Homo sapiens, UniProt P19525) | cell-free assay | competition with immobilised ligand | 100
INSRR (Homo sapiens, UniProt P14616) | cell-free assay | competition with immobilised ligand | 96
IRAK3 (Homo sapiens, UniProt Q9Y616) | cell-free assay | competition with immobilised ligand | 100

Series 3
Compound: Cn1cnc2cc3c(Nc4cccc(Br)c4)ncnc3cc21
Observed: enzyme activity
Mode: inhibitor
Tested at: 0.5 µM
Relative to: control
target | remaining activity
PRKCD (Homo sapiens, UniProt Q05655) | 91.8%
KIT (Homo sapiens, UniProt P10721) | 78.6%
EPHA5 (Homo sapiens, UniProt P54756) | 71.5%
MAP4K2 (Homo sapiens, UniProt Q12851) | 90.4%
LRRK2 (Homo sapiens, UniProt Q5S007) | 68.2%
CHEK1 (Homo sapiens, UniProt O14757) | 113%
MAP3K10 (Homo sapiens, UniProt Q02779) | 94%
LYN (Homo sapiens, UniProt P07948) | 52.4%
MAP2K6 (Homo sapiens, UniProt P52564) | 104%
Cyclin-dependent kinase 9, with cyclin T1 (CDK9, Homo sapiens, UniProt P50750) | 88.5%
MAPK12 (Homo sapiens, UniProt P53778) | 92%
BTK (Homo sapiens, UniProt Q06187) | 86.8%
NEK4 (Homo sapiens, UniProt P51957) | 96.8%
IRAK4 (Homo sapiens, UniProt Q9NWZ3) | 89.1%
PLK2 (Homo sapiens, UniProt Q9NYY3) | 101%
CSNK1A1 (Homo sapiens, UniProt P48729) | 102%
AKT3 (Homo sapiens, UniProt Q9Y243) | 89.5%
PRKCI (Homo sapiens, UniProt P41743) | 100%
MKNK2 (Homo sapiens, UniProt Q9HBH9) | 32.2%
CSNK2A1 (Homo sapiens, UniProt P68400) | 99%
WNK2 (Homo sapiens, UniProt Q9Y3S1) | 89.7%
PRKG1 (Homo sapiens, UniProt Q13976) | 97.8%
MAPK13 (Homo sapiens, UniProt O15264) | 101%

Series 4
Host: mouse
Sample: microsomes or S9
Tested at: 2 µM
Time: 0.5 h
Structure (SMILES) | remaining compound
CCOc1ccccc1CCCNS(=O)(=O)c1ccc(C)cc1 | 4.76%
CCCN(CCC)S(=O)(=O)c1cc2c(cc1Cl)Oc1ccc(C)cc1NC2=O | < 1%
CCCN(CC1CCCO1)C(=O)c1sc2ncn(C)c(=O)c2c1C (stereo not drawn) | 24.7%
O=C(CCCc1c[nH]c2ccccc12)Nc1cccc(C(=O)O)c1 | 95.5%
C/C(=C\COc1ccc2ccc(=O)oc2c1)CC/C=C(\C)CCC(=O)C(C)(C)O | 11%
Cn1c2nc3ccccc3nc2c2c(=O)n(Cc3ccccc3)cnc21 | 26%
COC(=O)c1ccc(C(=O)N2CCCN(C(=O)C[C@H](N)Cc3cc(F)c(F)cc3F)CC2)cc1 | 79.4%
COc1cc(=O)n(C)cc1C(=O)NCCCNC(=O)OC(C)(C)C | > 99%
CC(C)c1nc(CN(C)Cc2cnc(N(C)C)nc2)cs1 | 0.0164%
Cc1cc(Oc2ccc(-n3cncn3)cc2)nc(C)n1 | 59%
O=c1ccc(-c2ccc(S(=O)(=O)NCCCN3CCN(c4ccccc4)CC3)s2)n[nH]1 | 66.3%
COC(=O)c1ccc(C(=O)N2CCN(C(C)=O)N(C(=O)C[C@@H](Cc3cc(F)c(F)cc3F)NC(=O)OC(C)(C)C)CC2)cc1 | 18.4%
CC1CCN(CCNS(=O)(=O)c2ccc(-c3ccc(=O)[nH]n3)s2)CC1 | 98.5%

Excerpt of the above (series 1):
Structure (SMILES) | remaining activity
OC(CCN1CCCC1)(c1ccccc1)C1CCCCC1 (stereo not drawn) | 104%
Nc1[nH]cnc2ncnc1-2 | 93%
Cc1cc(Nc2ncnc3ccc(-c4ccc(CNCCS(C)(=O)=O)o4)cc23)ccc1Oc1ccn2ncnc2c1 | 97.7%
CC#C[C@]1(O)CC[C@H]2[C@@H]3CCC4=CC(=O)CCC4=C3[C@@H](c3ccc(N(C)C)cc3)C[C@@]21C | 102% and 95.3% and 92.2%
O=C(/C=C/c1ccc(O)c(O)c1)OCCc1ccccc1 | 97.6% and 100%
O=C(CCSCc1ccco1)NNC(=O)N1Cc2ccccc2Oc2ccc(Cl)cc21 | 98.7%
